Assay results from different studies.
Parts stem from different laboratories: compare values within a part only.

Block 1 — technique: protein binding microarray; form: double-stranded DNA, one strand shown; medium: in vitro; tested at: not given; relative to: not given; reading: higher = stronger binding
Target: Histone acetyltransferase KAT6A, both winged helices, GST fusion (KAT6A, Homo sapiens, UniProt Q92794, residues 1-181)
Setting: 8-mer, flanks averaged, mean of 2 arrays, mostly near background
Construct (chain): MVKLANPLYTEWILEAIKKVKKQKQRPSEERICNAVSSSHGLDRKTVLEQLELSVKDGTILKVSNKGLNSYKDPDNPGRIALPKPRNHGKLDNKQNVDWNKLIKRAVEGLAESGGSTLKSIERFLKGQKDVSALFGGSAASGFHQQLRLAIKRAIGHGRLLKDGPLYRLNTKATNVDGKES
`AACGTCAC` has an E-score of -0.0692.
With `AACCTACA` the E-score was -0.103.
The E-score of `CACCTTTA` is reported as -0.116.
`CACTTGCC` gave an E-score of -0.133.
`GAGCGCAA` gave an E-score of 0.191.
The E-score of `TAAGGGAA` is reported as -0.2.
With `ACTGCCAT` the E-score was -0.184.
For `TGTTAAAA`, the E-score was -0.0328.
With `ACAGCGTC` the E-score was 0.159.
`GCGGATGA` gave an E-score of 0.128.
With `AAGGTCTC` the E-score was 0.0398.
With `AGGTAAGA` the E-score was -0.111.
With `ACTCTGAG` the E-score was -0.239.
The E-score of `ATGGAATC` is reported as -0.0599.
`ATCCTCTC` gave an E-score of -0.243.
`ACCTTGAT` gave an E-score of -0.097.

Block 2 — technique: RNA Bind-n-Seq; form: RNA; medium: in vitro; tested at: 1 µM; setting: whole 134-nt RNA, ends assumed; together with: 150 mM KCl; relative to: input library; reading: higher = stronger binding
Target: Ras GTPase-activating protein-binding protein 1, RRM domain (G3BP1, Homo sapiens, UniProt Q13283)
Sequence of UniProt Q13283 (whole entry, looked up): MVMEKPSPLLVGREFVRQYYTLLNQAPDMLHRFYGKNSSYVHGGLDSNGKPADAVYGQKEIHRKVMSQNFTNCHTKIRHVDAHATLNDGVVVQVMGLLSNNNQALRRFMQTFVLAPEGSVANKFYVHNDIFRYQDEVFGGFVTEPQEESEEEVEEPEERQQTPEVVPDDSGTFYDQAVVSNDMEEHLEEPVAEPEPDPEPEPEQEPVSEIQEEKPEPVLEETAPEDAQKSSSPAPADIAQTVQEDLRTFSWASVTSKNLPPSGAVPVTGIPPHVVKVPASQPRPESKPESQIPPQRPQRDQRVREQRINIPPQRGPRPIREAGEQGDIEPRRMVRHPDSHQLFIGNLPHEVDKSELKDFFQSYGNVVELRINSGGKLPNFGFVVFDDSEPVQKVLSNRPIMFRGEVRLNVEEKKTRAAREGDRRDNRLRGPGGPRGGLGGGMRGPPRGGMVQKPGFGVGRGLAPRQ
`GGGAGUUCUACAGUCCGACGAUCCCUGUGCUACACAUCGUAUGUACCGAAUCGGGGUUUUUUGGGGUUUUUUGGUUUUUUGGGGAAAGUAUUAUGUUACGCCGUUCGGAUCUGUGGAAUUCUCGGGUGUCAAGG` gave a log2 enrichment of -0.223.
For `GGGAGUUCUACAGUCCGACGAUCUUCCGCGACUACCGGCGUGUGCACAAGCCGCCCAAGGUGCAGGAGAAGUGCCAGCUGGAGAUCAACUUCAACACGCUGCAGACCAAGCUGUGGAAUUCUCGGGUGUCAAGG`, the log2 enrichment was -0.409.
The log2 enrichment of `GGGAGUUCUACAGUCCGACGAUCUCCUCAAGUCCUGUGCUACACAUCGUAUGUACCGAAUCGGGUGGUGGGUGGGAAAGUAUUAUGUUACGCCGUUCGGAUCUGCACUUCCAGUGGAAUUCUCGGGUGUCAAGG` is reported as 0.162.
With `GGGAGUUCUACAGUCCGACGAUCUCCUGUGCUACACAUCGUAUGUACCGAAUCAAACCCCCAAAUUUUUAAAUUUUUUUAAAAAAGUAUUAUGUUACGCCGUUCGGAUCUGCAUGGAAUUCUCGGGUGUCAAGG` the log2 enrichment was -0.408.
`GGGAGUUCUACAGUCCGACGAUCCAAGUCCUGUGCUACACAUCGUAUGUACCGAAUCGGAAAAAAAGGUGGAAAAAGGAAAGUAUUAUGUUACGCCGUUCGGAUCUGCACUUCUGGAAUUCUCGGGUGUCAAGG` gave a log2 enrichment of -0.123.
For `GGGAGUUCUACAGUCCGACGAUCACCAUGCAGGAGGGCAUCUUUGGGAAGUGGGGCAAGGGGGGGAUAGGGAGGGGGGUAACACUUUGGGAACAGGUGGUCCCAGGUCGUUUCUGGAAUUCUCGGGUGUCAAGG`, the log2 enrichment was -0.566.
`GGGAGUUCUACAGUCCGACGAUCUGGCCCUGGUGGCAUGCGGGGAGGAAGAGGUGGCCUCAUGGAUCGUGGUGGUCCCGGUGGAAUGUUCAGGGGUGGCCGUGGUGGAGACAGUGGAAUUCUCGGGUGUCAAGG` has a log2 enrichment of 1.96.
`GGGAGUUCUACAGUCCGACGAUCGUCCUGUGCUACACAUCGUAUGUACCGAAUCAAACCCCCCCAAAUUUUUAAAUUUAAAAAAGUAUUAUGUUACGCCGUUCGGAUCUGCACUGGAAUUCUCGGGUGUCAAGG` gave a log2 enrichment of -0.469.
The log2 enrichment of `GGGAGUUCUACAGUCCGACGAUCUCAAGUCCUGUGCUACACAUCGUAUGUACCGAAUCGGAGGAAAAAGGUUUUUGGAAAGUAUUAUGUUACGCCGUUCGGAUCUGCACUUCCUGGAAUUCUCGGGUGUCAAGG` is reported as -0.164.
With `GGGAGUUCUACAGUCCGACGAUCCAAGUCCUGUGCUACACAUCGUAUGUACCGAAUCGGUUUUUGGAAAAAAAGGUGGAAAGUAUUAUGUUACGCCGUUCGGAUCUGCACUUCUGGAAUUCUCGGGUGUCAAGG` the log2 enrichment was -0.248.

Block 3 — technique: RNA Bind-n-Seq; form: RNA; medium: in vitro; tested at: 365 nM; relative to: no-protein control; reading: higher = stronger binding
Target: RNA binding protein fox-1 homolog 2, RRM domain, GST-SBP tag (RBFOX2, Homo sapiens, UniProt O43251-10, residues 100-194)
Setting: natural RNA segment, single round, ends assumed
Target sequence (chain): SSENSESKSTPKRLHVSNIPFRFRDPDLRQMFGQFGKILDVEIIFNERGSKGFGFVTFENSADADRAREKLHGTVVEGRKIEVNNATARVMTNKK
`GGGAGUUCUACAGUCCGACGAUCGGGGGACAAGCGUGGGCACAAUUUCCCCACCAAGACACCCUGAUCUUCAGGCGGGUCUCAGGAGCUUCUAAAAAUCCGCAUGGCUCUCCUGAGAGUGGACAGAGGAGAGGUGGAAUUCUCGGGUGCCAA`: “RBNS enrichment (R)” 3.34.
For `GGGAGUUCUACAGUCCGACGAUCCGACUGAGGAUUAUGCAACGUGGUCCAACCGGAGCGGCCAGCAUGACCAGCUGUCCAGGGGCUGCCUCCUGCCUUUUCUUUUGUAAAGACAAGACCCUUGGGAGUUUUAAUGGAAUUCUCGGGUGCCAA`, “RBNS enrichment (R)” read 1.38.
For `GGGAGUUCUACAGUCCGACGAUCUCCUGUUUUGGUUUAACAGUUUCUGAGAUACGUGUGUUAUAGGUUCAUUUACUACGAUCUGUCCACACUCGAAAAGUAGGCUACAUUAAAUCAUGCUAGCAGCCUUAAGAUGGAAUUCUCGGGUGCCAA`, “RBNS enrichment (R)” read 0.225.
For `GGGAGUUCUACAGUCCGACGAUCUGGGUUUCUAGGGAAUAUGGCUCAGUAGGGCCUGCCCCUUCAAGGGCAGCAAGAACGAAGCAGGAUGUUGUCACUCCCGUCUGAAUAAAGCUCCAUGAGCUGGGUUGGAAUGGAAUUCUCGGGUGCCAA`, “RBNS enrichment (R)” read 0.602.
`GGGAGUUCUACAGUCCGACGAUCGAAGACAGUCUUCGAUCGGCACAAGAUGCUCAGCUAGAUGGGCUGGUGUGGUUGGGUCAAGGCCCCAACACCAUGGCUGCCAGCUUCCAGGCUGGACAAAGCAGGGGGCUUGGAAUUCUCGGGUGCCAA` — result for “RBNS enrichment (R)”: 0.377.
`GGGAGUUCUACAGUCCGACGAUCAAACCACCUUUAAUCUAGAUACAUAGACUAACAGUGGAUUUUUUUUAACCCUUUAUCUUUCUGCCCACCCUGCCCAAACAUAUUUUAACCCAGGUUCUAAACUGAAACUGUGGAAUUCUCGGGUGCCAA`: “RBNS enrichment (R)” 0.398.
For `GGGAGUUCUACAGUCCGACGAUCCAGUCCCUGAACUGAGCUGUUUACAGGACUGGGGAGGCUCCACCCAGAAGGCUUUCAUUUGUACUCUGCUGGGAGUGACUGGGAAAAACUCCUUCCCUGCUGCUGAGUGGUGGAAUUCUCGGGUGCCAA`, “RBNS enrichment (R)” read 0.4.
Under “RBNS enrichment (R)”, `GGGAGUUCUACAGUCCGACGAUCGGUUUCUCAAAGGCAAUCCAGCUUUCACAAAGGAAGCCCAUGGGAAGGCAGGUGGGAGGGAAAGGAAGGGGCACAGCCCUAUUUCUUCCUACCUGCUAGGACAAGGUGGAUGGAAUUCUCGGGUGCCAA` is recorded as 0.348.
`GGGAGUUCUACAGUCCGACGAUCGGCCCUGCCCAACUUCAGGCAGAACAGGGAGGCCCAGAGAUUACAGAUCCCCUCCUGUAAGUGGCCAGGCAUUCUCUCCCUGCCCUCUCUGGCCUCUGGGGUCAUACUCAUGGAAUUCUCGGGUGCCAA` — result for “RBNS enrichment (R)”: 0.222.
`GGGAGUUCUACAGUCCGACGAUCUUCUGUUGUCUUAAGGGAUGCCCCCUUGUGAUUUUGGUCAACUGAAUGAAAAAGAAAAGAUAGCCUUGGACUUUUUUUUCAUGGGAGGUUUGGAGGUCAAGCAUGUAGAAUGGAAUUCUCGGGUGCCAA` — result for “RBNS enrichment (R)”: 22.4.
`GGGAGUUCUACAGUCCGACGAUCCAGAUAAUUGUCUGACUUUUUUUAGUCUUAAGUAUAGAGGGAAUCCCCUAAAGGCUGAUCCAACUGCUUCUGUGGUUCCACGGUAUUUUUCAUGGUUCAUGUGAAACGUGUGGAAUUCUCGGGUGCCAA`: “RBNS enrichment (R)” 0.221.
For `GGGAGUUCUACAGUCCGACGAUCCAUGAUUUGGCUCUCUGUUUGUCUGUUGUUGGUGUAUAAGAAUGCUUGUGAUUUUUGUACAUUGAUUUUGUAUCCUGAGACUUUGCUGAAGUUGCUUAUCAGCUUAAGGAUGGAAUUCUCGGGUGCCAA`, “RBNS enrichment (R)” read 0.812.

Block 4 — technique: universal PBM; form: double-stranded DNA, one strand shown; medium: in vitro; tested at: 600 nM; reading: higher = stronger binding
Target: Sal-like protein 4, full length isoform A (SALL4, Homo sapiens, UniProt Q9UJQ4, residues 1-1053)
Sequence of UniProt Q9UJQ4 (whole entry, looked up): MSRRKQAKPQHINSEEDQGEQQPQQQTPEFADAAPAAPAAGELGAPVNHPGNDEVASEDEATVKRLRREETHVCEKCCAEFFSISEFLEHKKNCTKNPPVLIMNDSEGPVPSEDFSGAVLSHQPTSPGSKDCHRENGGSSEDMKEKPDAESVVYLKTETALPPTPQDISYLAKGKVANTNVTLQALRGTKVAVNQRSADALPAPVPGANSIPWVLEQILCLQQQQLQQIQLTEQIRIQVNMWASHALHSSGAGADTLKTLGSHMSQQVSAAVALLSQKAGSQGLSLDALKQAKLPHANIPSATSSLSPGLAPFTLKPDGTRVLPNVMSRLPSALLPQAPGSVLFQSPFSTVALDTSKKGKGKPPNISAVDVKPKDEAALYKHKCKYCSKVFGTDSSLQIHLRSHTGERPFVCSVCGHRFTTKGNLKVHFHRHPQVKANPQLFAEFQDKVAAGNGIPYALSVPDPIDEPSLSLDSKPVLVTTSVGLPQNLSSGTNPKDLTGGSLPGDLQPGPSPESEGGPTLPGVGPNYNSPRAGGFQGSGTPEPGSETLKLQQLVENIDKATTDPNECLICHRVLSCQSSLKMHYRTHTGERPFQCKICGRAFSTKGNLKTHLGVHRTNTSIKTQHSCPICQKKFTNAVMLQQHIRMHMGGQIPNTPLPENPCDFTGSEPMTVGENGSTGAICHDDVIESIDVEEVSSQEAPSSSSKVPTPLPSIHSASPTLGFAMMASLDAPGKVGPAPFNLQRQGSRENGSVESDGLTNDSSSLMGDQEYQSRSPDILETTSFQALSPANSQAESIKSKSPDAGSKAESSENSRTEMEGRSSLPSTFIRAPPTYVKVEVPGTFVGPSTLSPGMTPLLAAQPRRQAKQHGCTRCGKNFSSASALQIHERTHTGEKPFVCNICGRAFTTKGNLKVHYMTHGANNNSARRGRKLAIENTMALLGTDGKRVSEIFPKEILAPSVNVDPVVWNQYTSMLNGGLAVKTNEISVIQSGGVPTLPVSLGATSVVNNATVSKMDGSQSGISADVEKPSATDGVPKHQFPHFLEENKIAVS
Setting: 8-mer, flanks averaged, mean of replicates
`AGCCGCGA` has an E-score of -0.309.
For `AGCTTCGA`, the E-score was -0.14.
With `AGGTTCTG` the E-score was -0.0866.
With `AAAAGTCA` the E-score was 0.0778.
For `ACACACAC`, the E-score was -0.0702.
With `AGTCATGC` the E-score was -0.128.
The E-score of `CCGAGGCA` is reported as -0.209.
The E-score of `AGCGGGAA` is reported as -0.151.
For `GCTGTCCC`, the E-score was -0.206.
The E-score of `GAACGGGC` is reported as -0.199.
`GACTTAAC` gave an E-score of -0.128.
With `GGCGCCAA` the E-score was -0.167.
For `CAGTTCGA`, the E-score was -0.0992.
For `GGTCGTAC`, the E-score was -0.239.
`ACAGAAGA` has an E-score of 0.0564.
The E-score of `GGACGCTA` is reported as -0.16.
For `CGTTCAGC`, the E-score was -0.176.
With `AGCACAGA` the E-score was 0.154.
`GGCGGCAC` gave an E-score of -0.257.
For `AAAAGTTA`, the E-score was 0.261.
`CCAGTTAG` gave an E-score of -0.0879.
The E-score of `CACCCGAG` is reported as -0.235.
The E-score of `GATAGCAC` is reported as -0.0637.
The E-score of `CTGGATAA` is reported as 0.0341.
With `ACTAAAAC` the E-score was 0.0877.
